Published values of several laboratories.
Numbered parts are unrelated; each lists some results of a single study. Several values in a cell are separate wells, animals, samples, runs or records.
Sequence of UniProt Q00537 (whole entry, looked up): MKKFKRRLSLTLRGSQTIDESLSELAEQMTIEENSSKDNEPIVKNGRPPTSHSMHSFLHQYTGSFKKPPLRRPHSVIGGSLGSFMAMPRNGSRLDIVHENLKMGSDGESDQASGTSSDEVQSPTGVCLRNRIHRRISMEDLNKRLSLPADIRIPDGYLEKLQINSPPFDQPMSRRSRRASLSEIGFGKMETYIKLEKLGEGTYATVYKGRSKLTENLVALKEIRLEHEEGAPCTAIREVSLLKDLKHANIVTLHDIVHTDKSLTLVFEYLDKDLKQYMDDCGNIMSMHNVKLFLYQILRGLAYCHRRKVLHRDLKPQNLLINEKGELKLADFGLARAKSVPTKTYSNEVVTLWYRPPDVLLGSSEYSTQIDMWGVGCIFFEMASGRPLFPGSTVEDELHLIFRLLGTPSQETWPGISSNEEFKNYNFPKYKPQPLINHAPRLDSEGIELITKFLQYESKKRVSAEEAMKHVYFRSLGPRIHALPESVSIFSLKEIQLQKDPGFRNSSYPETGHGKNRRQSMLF
Sequence of UniProt P42336 (whole entry, unmodified, looked up): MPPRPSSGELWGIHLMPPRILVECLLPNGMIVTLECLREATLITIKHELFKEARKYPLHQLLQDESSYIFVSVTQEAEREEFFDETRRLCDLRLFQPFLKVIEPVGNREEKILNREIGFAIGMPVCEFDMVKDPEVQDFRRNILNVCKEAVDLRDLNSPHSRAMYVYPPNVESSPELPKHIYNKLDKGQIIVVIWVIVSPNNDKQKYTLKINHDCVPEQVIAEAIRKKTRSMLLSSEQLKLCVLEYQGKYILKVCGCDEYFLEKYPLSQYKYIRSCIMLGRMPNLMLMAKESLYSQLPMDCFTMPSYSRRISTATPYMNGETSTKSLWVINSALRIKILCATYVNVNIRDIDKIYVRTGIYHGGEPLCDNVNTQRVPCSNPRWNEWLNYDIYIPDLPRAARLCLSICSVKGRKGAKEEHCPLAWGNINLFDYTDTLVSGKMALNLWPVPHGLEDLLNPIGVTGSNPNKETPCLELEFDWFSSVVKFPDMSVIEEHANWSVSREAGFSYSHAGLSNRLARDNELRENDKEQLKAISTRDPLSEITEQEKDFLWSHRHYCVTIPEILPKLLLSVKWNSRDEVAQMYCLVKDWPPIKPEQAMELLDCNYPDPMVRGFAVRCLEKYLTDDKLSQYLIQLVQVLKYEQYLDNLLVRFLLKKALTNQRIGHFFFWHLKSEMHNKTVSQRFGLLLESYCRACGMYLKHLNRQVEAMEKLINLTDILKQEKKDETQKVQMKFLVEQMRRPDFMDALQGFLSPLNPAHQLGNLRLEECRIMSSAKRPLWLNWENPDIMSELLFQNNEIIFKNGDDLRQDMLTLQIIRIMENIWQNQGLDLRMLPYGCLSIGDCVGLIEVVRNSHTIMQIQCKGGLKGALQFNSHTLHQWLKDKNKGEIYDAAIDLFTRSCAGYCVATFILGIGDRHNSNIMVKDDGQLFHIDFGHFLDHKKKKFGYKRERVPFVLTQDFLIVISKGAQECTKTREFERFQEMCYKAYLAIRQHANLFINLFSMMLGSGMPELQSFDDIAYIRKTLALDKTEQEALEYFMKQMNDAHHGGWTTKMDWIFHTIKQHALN
Sequence of UniProt Q2M2I8 (whole entry, looked up): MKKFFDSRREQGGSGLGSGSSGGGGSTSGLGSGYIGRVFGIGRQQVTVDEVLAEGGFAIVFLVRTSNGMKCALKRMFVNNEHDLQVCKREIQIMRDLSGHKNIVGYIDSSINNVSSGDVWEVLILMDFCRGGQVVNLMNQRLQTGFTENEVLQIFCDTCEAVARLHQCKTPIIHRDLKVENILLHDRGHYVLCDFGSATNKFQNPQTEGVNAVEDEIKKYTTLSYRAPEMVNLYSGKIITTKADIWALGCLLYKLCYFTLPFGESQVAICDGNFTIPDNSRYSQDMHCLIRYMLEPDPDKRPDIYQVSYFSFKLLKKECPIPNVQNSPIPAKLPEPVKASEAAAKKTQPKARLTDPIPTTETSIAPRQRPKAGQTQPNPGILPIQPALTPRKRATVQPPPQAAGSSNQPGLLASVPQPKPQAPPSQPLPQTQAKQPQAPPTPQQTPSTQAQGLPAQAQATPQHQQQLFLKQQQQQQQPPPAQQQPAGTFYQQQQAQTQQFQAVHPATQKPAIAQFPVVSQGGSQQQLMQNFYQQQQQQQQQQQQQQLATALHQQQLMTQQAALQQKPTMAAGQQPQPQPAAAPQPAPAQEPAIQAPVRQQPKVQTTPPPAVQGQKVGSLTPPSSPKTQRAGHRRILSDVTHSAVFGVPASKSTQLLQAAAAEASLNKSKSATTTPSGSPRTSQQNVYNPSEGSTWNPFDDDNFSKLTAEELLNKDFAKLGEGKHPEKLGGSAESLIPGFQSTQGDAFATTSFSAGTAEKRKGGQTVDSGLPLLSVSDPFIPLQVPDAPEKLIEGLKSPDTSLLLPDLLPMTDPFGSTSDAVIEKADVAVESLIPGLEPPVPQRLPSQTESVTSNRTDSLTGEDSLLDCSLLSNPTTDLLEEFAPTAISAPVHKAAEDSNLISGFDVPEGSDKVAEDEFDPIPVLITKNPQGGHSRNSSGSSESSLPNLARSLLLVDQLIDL
Sequence of UniProt P42681 (whole entry, looked up): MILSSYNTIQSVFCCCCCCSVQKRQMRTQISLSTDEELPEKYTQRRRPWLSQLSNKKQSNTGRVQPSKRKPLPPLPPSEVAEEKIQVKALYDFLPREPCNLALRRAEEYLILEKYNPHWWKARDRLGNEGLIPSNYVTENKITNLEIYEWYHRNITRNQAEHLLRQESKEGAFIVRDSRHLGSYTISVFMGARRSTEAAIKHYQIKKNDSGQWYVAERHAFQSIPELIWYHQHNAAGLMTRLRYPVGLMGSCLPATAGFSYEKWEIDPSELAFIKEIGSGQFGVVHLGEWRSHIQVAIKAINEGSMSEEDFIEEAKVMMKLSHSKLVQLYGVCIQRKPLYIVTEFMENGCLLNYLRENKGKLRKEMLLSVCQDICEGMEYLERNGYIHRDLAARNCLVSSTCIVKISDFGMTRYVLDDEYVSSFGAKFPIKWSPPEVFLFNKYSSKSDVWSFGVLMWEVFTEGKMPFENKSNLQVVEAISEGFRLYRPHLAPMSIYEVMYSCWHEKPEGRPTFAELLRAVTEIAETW
Sequence of UniProt P36896 (whole entry, looked up): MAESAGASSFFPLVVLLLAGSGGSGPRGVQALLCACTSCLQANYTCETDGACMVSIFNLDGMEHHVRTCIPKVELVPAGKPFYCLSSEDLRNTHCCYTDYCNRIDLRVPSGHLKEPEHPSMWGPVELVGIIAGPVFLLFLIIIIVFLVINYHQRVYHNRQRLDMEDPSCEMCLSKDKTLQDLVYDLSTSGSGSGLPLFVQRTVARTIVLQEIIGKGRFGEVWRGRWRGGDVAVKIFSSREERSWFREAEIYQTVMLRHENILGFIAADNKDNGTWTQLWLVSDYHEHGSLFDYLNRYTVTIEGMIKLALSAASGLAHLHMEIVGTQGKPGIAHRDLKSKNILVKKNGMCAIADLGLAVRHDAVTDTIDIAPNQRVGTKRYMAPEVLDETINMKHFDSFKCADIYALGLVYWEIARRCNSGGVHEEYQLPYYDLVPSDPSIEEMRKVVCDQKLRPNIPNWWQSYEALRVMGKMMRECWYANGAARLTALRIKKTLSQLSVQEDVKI

Study 1
SMILES: COc1cc(-c2cn(C3CCc4c(F)cccc4N(CC(F)(F)F)C3=O)nn2)ccc1-n1cnc(C)c1 (centres unmarked)
Concentration: 1 µM
| target | observed | method | remaining binding |
| --- | --- | --- | --- |
| Ribosomal protein S6 kinase alpha-4, N-terminal kinase domain (RPS6KA4, Homo sapiens, UniProt O75676) | cell-free assay | competition with immobilised ligand | 100% |
| TXK (Homo sapiens, UniProt P42681) | binding | competition with immobilised ligand | 100% |
| PIK3CA (Homo sapiens, UniProt P42336, E542K) | cell-free assay | competition with immobilised ligand | 88% |
| EPHA7 (Homo sapiens, UniProt Q15375) | cell-free assay | competition with immobilised ligand | 100% |
| MAP3K15 (Homo sapiens, UniProt Q6ZN16) | cell-free assay | competition with immobilised ligand | 100% |
| ACVR1B (Homo sapiens, UniProt P36896) | cell-free assay | competition with immobilised ligand | 100% |
| CDK17 (Homo sapiens, UniProt Q00537) | cell-free assay | competition with immobilised ligand | 84% |
| AAK1 (Homo sapiens, UniProt Q2M2I8) | binding | – | 100% |
| DYRK1B (Homo sapiens, UniProt Q9Y463) | cell-free assay | competition with immobilised ligand | 100% |
| MAP3K6 (Homo sapiens, UniProt O95382) | cell-free assay | competition with immobilised ligand | 98% |
| FGFR1 (Homo sapiens, UniProt P11362) | cell-free assay | competition with immobilised ligand | 100% |
| MET (Homo sapiens, UniProt P08581, Y1235D) | cell-free assay | competition with immobilised ligand | 100% |
| EGFR (Homo sapiens, UniProt P00533, T790M) | cell-free assay | competition with immobilised ligand | 83% |
| Receptor-type tyrosine-protein kinase FLT3, autoinhibited (FLT3, Homo sapiens, UniProt P36888) | cell-free assay | competition with immobilised ligand | 100% |
| Tyrosine-protein kinase ABL1, non-phosphorylated (ABL1, Homo sapiens, UniProt P00519, F317L) | cell-free assay | competition with immobilised ligand | 85% |
| HASPIN (Homo sapiens, UniProt Q8TF76) | cell-free assay | competition with immobilised ligand | 87% |

Study 2
Cell line: mouse MPNST tumor cells
Method: high-content immunofluorescence imaging
Item: nuclear SOX9
Concentration: 10 µM
Time: 12 h
Notes: mean of 2 replicates
Relative to: DMSO control
Direction: higher = more nuclear SOX9
| SMILES | nuclear SOX9 intensity |
| --- | --- |
| CCCc1nn(C)c2c(=O)[nH]c(-c3cc(S(=O)(=O)N4CCN(C)CC4)ccc3OCC)nc12 | 108 % of DMSO and 94.3 % of DMSO and 94.9 % of DMSO |
| Cc1cccc(C#Cc2ccccc2)n1 | 93.3 % of DMSO |
| Fc1ccccc1CNCc1ccc(-c2ccnc3[nH]ccc23)cc1 | 89.7 % of DMSO |
| Nc1nc(OCC2CCCCC2)c2[nH]cnc2n1 | 87.6 % of DMSO |
| O=C(O)C[C@@]1(O)C[C@@H](CCCCCCc2ccc(Cl)cc2Cl)OC1=O | 92 % of DMSO |

Study 3
Species: mouse
Matrix: microsomes or S9
Concentration: 2 µM
Time: 0.5 h
| SMILES | remaining compound |
| --- | --- |
| CS(=O)(=O)N1CCC(Nc2nc(Cl)ncc2F)C1 (centres unmarked) | 81.7% |
| CC1=C(C#N)C(c2ccc(C(C)C)cc2)C2=C(O)c3ccccc3C2=N1 (centres unmarked) | 2.44% |
| COC(=O)c1cc(F)c(NCCCN(CCCCN(CCCn2c(=O)[nH]c3cc(F)c(F)cc3c2=O)C(=O)OC(C)(C)C)C(=O)OC(C)(C)C)cc1NC(=O)NCCCN(CCCCN(CCCn1c(=O)[nH]c2cc(F)c(F)cc2c1=O)C(=O)OC(C)(C)C)C(=O)OC(C)(C)C | > 99.9% |
| NC(=O)c1cccc2c1nc1scc(CN3CCCC3)n12 | 16.2% |
| CNC1=C(c2cc(C)cc(C)n2)C(=O)C(c2ccccc2Cl)O1 (centres unmarked) | 0.103% |
| COc1ccccc1NC(=O)Cn1c(=O)c2ccccc2n2nnc(-c3ccccc3)c12 | 1.49% |
| CC(C)COc1cc(=O)n2c(c1C(=O)NCc1ccccc1F)CCCCC2 | 92.4% |

Study 4
Target: MAP kinase-interacting serine/threonine-protein kinase 2 (MKNK2, Homo sapiens, UniProt Q9HBH9)
Sequence of UniProt Q9HBH9 (whole entry, looked up): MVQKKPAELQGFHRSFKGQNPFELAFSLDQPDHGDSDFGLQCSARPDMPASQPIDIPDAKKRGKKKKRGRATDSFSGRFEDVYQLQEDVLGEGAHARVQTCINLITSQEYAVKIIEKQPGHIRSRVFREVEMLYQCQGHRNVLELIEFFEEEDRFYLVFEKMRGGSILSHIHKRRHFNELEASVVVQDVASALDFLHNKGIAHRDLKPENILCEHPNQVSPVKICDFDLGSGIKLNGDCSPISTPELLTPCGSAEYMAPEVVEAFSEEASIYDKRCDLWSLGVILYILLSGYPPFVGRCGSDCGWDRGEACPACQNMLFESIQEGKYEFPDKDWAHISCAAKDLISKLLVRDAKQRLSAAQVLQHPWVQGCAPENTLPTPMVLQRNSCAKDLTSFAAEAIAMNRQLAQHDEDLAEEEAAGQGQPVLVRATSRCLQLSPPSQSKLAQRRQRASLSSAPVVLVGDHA
Observed: enzyme activity
Action: inhibitor
Concentration: 0.5 µM
Relative to: control
| Structure (SMILES) | remaining activity [%] |
| --- | --- |
| O=c1cc(-c2cccc3c2Sc2ccccc2S3)oc(N2CCOCC2)c1 | 117 |
| c1ccc(-c2cnc(Nc3ccc(OCCN4CCCC4)cc3)s2)cc1 | 18.6 |
| N#C/C(=C\c1ccc(O)c(O)c1)C(=O)NCc1ccccc1 | 87.9 |
| O=C1c2ccccc2-c2n[nH]c3cccc1c23 | 59.1 |
| COc1cc2c(cc1OC)-c1[nH]nc(Nc3cccc(F)c3)c1C2 | 91.5 |
| c1ccc(-c2[nH]ncc2-c2ccnc3ccccc23)nc1 | 81.9 |
| CCOc1nc(NC(=O)Cc2cc(OC)ccc2OC)cc(N)c1C#N | 106 |
| O=C1C(Cl)=C(N2C(=O)CCC2=O)C(=O)c2ccccc21 | 84.5 |
| Ic1cccc(CSc2nnc(-c3ccncc3)o2)c1 | 91.5 |
| O=C(Nc1cccc(Nc2nccc(Nc3cccc(C(F)(F)F)c3)n2)c1)C1CC1 | 91.2 |
| CCN(CC)CCNC(=O)c1c(C)[nH]c(/C=C2\C(=O)Nc3ccc(F)cc32)c1C | 99.3 |
| Cn1nc2c3c(cccc31)C(=O)c1ccccc1-2 | 94.1 |
| Nc1cccc(-c2cc3c(Oc4cccc(O)c4)ncnc3[nH]2)c1 | 67.5 |
| O=C(NC(NC(=S)Nc1ccc(F)c([N+](=O)[O-])c1)C(Cl)(Cl)Cl)C(c1ccccc1)c1ccccc1 (centres unmarked) | 135 |
| COc1cc2ncnc(Nc3cccc(Cl)c3)c2cc1OC | 39.5 |
| Cc1cc2ncc(-c3ccccc3)nc2cc1C | 94.8 |
| COc1cc2ncnc(Nc3ccc(O)c(Br)c3)c2cc1OC | 18 |
| C[C@@H]1CCN(C(=O)CC#N)C[C@@H]1N(C)c1ncnc2[nH]ccc12 | 97.4 |
| CCN(CC)CCNC(=O)c1c(C)[nH]c(/C=C2\C(=O)Nc3ccc(Cl)cc32)c1C | 88.8 |
| Cc1nc2cc3nc(-c4cccs4)cnc3cc2n1C | 108 |
| CCN(CC)C(=O)c1ccc(Nc2nc(OCC3CCCCC3)c3[nH]cnc3n2)cc1 | 89.3 |
| CN(C)C[C@H]1CCn2c(c(C3=C(c4cn(C)c5ccccc45)C(=O)NC3=O)c3ccccc32)C1 | 85.8 |
| Cc1cn(-c2cc(NC(=O)c3ccc(C)c(Nc4nccc(-c5cccnc5)n4)c3)cc(C(F)(F)F)c2)cn1 | 103 |
| CN([C@@H](Cc1ccc(OS(=O)(=O)c2cccc3cnccc23)cc1)C(=O)N1CCN(c2ccccc2)CC1)S(=O)(=O)c1cccc2cnccc12 | 104 |
| N#Cc1c(NC(=O)c2cccc3ccccc23)sc2c1CCCC2 | 106 |

For quick reference, copied from above (study 1):
| target | observed | method | remaining binding |
| --- | --- | --- | --- |
| Tyrosine-protein kinase ABL1, non-phosphorylated (ABL1, Homo sapiens, UniProt P00519, F317L) | cell-free assay | competition with immobilised ligand | 85% |
| FGFR1 (Homo sapiens, UniProt P11362) | cell-free assay | competition with immobilised ligand | 100% |
| ACVR1B (Homo sapiens, UniProt P36896) | cell-free assay | competition with immobilised ligand | 100% |
| PIK3CA (Homo sapiens, UniProt P42336, E542K) | cell-free assay | competition with immobilised ligand | 88% |
| MET (Homo sapiens, UniProt P08581, Y1235D) | cell-free assay | competition with immobilised ligand | 100% |
| DYRK1B (Homo sapiens, UniProt Q9Y463) | cell-free assay | competition with immobilised ligand | 100% |
| MAP3K15 (Homo sapiens, UniProt Q6ZN16) | cell-free assay | competition with immobilised ligand | 100% |
| EPHA7 (Homo sapiens, UniProt Q15375) | cell-free assay | competition with immobilised ligand | 100% |
